Measured values collected from several papers.
A part holds a random share of what one study measured. “And” joins repeats or separate records; there may be more than shown.
UniProt P42336, sequence (whole entry, unmodified, looked up): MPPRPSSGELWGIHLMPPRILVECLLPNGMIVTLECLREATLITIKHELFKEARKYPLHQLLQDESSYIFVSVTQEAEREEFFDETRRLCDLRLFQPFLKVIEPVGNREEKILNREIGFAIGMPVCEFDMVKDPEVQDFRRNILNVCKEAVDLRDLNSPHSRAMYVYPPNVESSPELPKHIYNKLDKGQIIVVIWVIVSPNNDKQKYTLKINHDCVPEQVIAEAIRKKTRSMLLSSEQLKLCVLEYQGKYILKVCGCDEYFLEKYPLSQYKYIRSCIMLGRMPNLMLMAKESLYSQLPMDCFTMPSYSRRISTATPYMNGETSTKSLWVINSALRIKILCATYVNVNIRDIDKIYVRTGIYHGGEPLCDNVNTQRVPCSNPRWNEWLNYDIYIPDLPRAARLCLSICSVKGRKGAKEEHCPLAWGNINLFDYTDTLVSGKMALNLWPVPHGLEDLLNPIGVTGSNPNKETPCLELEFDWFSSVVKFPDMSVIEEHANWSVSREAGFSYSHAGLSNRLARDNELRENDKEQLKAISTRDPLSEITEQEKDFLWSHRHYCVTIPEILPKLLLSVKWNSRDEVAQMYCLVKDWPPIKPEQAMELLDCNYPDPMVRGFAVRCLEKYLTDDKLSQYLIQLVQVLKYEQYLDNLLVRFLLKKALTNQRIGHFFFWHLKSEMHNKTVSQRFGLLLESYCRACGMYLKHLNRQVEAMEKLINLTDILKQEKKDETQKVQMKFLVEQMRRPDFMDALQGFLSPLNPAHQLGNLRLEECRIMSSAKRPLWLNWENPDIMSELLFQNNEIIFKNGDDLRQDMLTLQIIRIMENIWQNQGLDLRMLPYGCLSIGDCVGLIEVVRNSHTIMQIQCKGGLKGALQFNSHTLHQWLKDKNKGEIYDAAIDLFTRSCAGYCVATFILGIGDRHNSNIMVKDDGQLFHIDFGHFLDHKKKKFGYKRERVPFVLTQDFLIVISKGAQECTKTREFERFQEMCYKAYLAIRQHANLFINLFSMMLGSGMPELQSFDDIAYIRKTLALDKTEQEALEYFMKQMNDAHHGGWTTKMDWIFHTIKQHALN
UniProt Q9P286, sequence (whole entry, looked up): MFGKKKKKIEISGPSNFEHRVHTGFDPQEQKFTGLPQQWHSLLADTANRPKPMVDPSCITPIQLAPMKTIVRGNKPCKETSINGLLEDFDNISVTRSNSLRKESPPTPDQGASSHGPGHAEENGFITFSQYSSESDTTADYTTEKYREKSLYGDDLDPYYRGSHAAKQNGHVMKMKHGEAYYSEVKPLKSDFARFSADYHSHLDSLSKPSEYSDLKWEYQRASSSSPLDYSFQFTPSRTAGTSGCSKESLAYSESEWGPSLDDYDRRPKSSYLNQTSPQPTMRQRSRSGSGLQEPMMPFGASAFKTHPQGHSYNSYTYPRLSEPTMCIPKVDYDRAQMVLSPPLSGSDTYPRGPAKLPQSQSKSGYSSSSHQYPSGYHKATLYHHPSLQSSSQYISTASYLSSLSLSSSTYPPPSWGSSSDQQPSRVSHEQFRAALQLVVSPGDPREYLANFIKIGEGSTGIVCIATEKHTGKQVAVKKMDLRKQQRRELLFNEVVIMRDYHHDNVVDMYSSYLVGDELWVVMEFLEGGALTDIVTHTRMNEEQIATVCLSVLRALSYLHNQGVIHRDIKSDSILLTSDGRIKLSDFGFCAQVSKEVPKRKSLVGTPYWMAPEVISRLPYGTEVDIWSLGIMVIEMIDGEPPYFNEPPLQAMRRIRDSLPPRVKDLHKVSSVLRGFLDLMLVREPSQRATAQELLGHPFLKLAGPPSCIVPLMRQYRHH
UniProt Q92918, sequence (whole entry, looked up): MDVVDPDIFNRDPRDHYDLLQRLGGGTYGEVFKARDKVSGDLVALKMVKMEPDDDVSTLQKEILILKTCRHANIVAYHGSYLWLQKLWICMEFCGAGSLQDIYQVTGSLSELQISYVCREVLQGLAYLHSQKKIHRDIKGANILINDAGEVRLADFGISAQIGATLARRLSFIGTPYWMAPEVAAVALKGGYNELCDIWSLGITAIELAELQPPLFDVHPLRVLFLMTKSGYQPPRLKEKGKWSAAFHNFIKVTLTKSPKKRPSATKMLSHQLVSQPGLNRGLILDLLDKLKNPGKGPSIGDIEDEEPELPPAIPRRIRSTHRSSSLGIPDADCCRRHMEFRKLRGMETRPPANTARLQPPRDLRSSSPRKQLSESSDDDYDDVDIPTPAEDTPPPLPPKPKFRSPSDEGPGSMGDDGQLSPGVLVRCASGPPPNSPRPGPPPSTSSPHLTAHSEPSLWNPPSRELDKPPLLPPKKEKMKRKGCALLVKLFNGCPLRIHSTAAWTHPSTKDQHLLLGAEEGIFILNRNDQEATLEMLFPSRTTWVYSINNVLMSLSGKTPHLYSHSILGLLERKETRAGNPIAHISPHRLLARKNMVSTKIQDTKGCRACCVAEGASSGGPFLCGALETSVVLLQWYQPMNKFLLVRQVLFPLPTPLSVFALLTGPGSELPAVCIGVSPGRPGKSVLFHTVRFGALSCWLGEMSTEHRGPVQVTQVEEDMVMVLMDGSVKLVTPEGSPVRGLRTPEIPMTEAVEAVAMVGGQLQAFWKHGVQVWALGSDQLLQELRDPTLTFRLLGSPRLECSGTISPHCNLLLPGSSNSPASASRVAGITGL
UniProt P07949, sequence (whole entry, unmodified, looked up): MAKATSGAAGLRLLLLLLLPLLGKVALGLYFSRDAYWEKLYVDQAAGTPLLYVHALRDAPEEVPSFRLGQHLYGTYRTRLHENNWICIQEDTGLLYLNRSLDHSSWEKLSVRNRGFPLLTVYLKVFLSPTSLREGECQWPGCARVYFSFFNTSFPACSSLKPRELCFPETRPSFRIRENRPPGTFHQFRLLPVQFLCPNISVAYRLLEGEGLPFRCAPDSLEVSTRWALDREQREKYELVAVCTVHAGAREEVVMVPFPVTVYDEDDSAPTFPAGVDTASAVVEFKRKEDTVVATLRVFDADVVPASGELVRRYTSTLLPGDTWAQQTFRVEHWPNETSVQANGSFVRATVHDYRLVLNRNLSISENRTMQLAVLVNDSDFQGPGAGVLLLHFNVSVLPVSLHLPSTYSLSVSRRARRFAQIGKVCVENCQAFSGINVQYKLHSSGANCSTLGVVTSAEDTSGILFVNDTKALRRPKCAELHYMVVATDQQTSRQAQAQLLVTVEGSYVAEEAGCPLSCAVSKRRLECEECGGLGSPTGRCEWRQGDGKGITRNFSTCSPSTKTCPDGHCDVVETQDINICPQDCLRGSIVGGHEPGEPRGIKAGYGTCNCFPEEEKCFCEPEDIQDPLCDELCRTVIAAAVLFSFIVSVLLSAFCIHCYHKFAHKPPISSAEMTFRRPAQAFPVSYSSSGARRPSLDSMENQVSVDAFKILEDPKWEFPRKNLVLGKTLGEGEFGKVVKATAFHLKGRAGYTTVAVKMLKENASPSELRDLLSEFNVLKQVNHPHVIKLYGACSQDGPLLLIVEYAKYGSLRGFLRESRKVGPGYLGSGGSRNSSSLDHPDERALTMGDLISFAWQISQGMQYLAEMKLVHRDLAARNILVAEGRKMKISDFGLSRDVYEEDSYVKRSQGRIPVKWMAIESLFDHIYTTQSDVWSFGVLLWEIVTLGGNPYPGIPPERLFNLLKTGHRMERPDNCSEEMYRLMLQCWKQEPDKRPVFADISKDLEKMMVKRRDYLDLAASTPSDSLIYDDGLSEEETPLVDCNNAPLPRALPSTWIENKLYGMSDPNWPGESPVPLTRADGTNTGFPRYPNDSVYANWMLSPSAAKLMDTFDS
UniProt O15197, sequence (whole entry, looked up): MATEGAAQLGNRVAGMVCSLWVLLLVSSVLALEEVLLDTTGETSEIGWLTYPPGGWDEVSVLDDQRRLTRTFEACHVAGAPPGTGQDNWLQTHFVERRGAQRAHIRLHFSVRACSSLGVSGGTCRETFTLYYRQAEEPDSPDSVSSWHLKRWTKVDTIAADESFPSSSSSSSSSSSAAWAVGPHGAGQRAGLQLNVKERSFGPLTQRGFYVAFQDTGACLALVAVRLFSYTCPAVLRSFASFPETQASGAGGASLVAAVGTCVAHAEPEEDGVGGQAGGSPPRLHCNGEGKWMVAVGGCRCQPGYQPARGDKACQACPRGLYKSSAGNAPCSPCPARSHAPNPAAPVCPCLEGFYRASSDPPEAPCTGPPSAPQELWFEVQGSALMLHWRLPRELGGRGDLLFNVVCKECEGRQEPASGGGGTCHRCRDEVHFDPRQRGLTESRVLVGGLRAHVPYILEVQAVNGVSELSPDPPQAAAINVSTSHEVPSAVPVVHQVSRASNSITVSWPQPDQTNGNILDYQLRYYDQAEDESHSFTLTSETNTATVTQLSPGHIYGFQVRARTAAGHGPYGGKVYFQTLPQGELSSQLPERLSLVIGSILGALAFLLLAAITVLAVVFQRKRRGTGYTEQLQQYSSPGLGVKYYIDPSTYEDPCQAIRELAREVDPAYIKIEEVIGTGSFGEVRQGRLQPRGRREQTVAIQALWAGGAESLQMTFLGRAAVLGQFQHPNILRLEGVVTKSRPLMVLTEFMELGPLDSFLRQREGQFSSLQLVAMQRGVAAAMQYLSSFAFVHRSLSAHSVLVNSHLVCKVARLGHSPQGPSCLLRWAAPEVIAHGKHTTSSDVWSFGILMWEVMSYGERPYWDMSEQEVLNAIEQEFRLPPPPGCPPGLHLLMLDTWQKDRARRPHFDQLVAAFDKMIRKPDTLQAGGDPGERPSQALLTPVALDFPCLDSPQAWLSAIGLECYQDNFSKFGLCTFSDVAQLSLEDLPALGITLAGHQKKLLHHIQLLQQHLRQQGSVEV
UniProt P50613, sequence (whole entry, looked up): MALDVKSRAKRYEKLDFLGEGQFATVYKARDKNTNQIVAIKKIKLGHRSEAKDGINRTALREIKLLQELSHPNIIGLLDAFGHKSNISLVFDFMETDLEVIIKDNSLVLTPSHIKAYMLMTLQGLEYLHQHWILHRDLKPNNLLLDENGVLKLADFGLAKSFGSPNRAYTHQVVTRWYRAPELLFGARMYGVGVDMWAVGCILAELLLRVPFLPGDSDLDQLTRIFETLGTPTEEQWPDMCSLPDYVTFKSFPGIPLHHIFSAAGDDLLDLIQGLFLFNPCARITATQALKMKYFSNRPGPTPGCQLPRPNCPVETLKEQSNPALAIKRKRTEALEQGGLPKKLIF

Block 1 — cell line: A-375; concentration: 100 µM; time: 18 h
For `CC(=O)N[C@H]1[C@H]([C@H](O)[C@H](O)CO)OC(C(=O)O)=C[C@@H]1N=C(N)N`, the viability was 102%.
With `C#C[C@]1(OC(C)=O)CC[C@H]2[C@@H]3CCC4=C[C@@H](OC(C)=O)CC[C@@H]4[C@H]3CC[C@@]21C` the viability was 39.8%.
With `C[C@]12CC[C@@H]3c4ccc(O)cc4CC[C@H]3[C@@H]1CC[C@@H]2O` the viability was 79.4%.
For `CN[C@@H]1[C@H](O)[C@H](NC)[C@H]2O[C@@]3(O)C(=O)C[C@@H](C)O[C@H]3O[C@@H]2[C@H]1O`, the viability was 89.5% and 98%.
The viability of `c1cc(CN2CCCNCCNCCCNCC2)ccc1CN1CCCNCCNCCCNCC1` is reported as 106%.
For `COc1ccc(CN(CCN(C)C)c2ccccn2)cc1`, the viability was 92.2%.
For `CN1CCN(c2c(F)cc3c(=O)c(C(=O)O)cn(CCF)c3c2F)CC1`, the viability was 95.7%.
For `COc1nc2ccc(Br)cc2cc1[C@@H](c1ccccc1)[C@@](O)(CCN(C)C)c1cccc2ccccc12`, the viability was 31.8%.
`O=C(O)CSCC(=O)NC1CCSC1=O` (centres unmarked) has a viability of 61.5%.
`O=C(O)c1cccnc1Nc1cccc(C(F)(F)F)c1` has a viability of 84.5%.
`Nc1ncn([C@@H]2O[C@H](CO)[C@@H](O)[C@H]2O)c(=O)n1` has a viability of 47.8%.
`CCC(C)n1ncn(-c2ccc(N3CCN(c4ccc(OC[C@H]5CO[C@](Cn6cncn6)(c6ccc(Cl)cc6Cl)O5)cc4)CC3)cc2)c1=O` (mixture of isomers) has a viability of 87.8%.

Block 2 — read-out: cell-free assay; method: competition with immobilised ligand; concentration: 1 µM
Compound: CC(=O)c1c(NS(C)(=O)=O)c2cc(-c3ccc(Cl)cc3)c(-c3ccc(Cl)cc3Cl)nc2n(C)c1=O
It gave 98% for remaining binding (PAK5 (Homo sapiens, UniProt Q9P286)).
MAP4K1 (Homo sapiens, UniProt Q92918) — remaining binding: 100%.
For LRRK2 (Homo sapiens, UniProt Q5S007, G2019S): remaining binding read 100%.
For EPHB6 (Homo sapiens, UniProt O15197): remaining binding read 100%.
For RET (Homo sapiens, UniProt P07949, V804M): remaining binding read 100%.
The remaining binding was 63% (CDK4 (Homo sapiens, UniProt P11802)).
The remaining binding was 96% (PIK3CA (Homo sapiens, UniProt P42336, H1047L)).
It gave 100% for remaining binding (DAPK2 (Homo sapiens, UniProt Q9UIK4)).
It gave 100% for remaining binding (EGFR (Homo sapiens, UniProt P00533, G719C)).
FLT3 (Homo sapiens, UniProt P36888, R834Q) — remaining binding: 100%.
The remaining binding was 95% (CDC42BPA (Homo sapiens, UniProt Q5VT25)).
It gave 81% for remaining binding (LATS1 (Homo sapiens, UniProt O95835)).
The remaining binding was 100% (PIK3CA (Homo sapiens, UniProt P42336, E545A)).
The remaining binding was 100% (EPHA2 (Homo sapiens, UniProt P29317)).
The remaining binding was 82% (CDK7 (Homo sapiens, UniProt P50613)).
PIK3CA (Homo sapiens, UniProt P42336, E545K) — remaining binding: 91%.

Block 3 — read-out: enzyme activity; mode: inhibitor; concentration: 0.5 µM; relative to: control
Target: Serine/threonine-protein kinase ULK1 (ULK1, Homo sapiens, UniProt O75385)
Target sequence (O75385 1-1050): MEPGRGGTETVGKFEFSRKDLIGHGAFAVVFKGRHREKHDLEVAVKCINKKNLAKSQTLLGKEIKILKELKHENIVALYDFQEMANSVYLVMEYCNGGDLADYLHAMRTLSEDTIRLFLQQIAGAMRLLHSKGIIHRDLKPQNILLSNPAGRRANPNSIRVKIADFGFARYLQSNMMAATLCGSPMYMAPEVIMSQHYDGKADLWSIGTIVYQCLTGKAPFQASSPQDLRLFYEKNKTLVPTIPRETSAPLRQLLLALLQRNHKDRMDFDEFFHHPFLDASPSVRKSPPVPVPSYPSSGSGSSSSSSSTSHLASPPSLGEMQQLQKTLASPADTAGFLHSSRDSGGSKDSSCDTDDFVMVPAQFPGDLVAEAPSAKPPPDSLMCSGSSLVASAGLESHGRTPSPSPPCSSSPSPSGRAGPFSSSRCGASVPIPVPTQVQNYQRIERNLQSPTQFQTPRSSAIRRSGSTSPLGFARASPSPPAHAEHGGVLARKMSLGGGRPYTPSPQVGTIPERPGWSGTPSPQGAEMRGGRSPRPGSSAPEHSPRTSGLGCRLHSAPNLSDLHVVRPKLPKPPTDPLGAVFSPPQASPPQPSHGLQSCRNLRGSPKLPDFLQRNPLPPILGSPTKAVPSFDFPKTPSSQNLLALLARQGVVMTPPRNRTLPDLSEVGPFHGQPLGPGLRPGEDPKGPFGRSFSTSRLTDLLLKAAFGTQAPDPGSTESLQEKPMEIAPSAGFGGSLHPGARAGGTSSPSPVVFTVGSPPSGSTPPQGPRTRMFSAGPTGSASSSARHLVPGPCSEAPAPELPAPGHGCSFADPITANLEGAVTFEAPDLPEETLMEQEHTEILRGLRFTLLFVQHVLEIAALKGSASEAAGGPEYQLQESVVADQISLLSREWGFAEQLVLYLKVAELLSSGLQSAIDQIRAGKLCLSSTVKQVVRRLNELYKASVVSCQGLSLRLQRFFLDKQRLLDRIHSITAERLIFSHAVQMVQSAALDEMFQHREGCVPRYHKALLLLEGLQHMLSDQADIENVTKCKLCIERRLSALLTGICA
The remaining activity of `COc1cc2ncc(-c3ccccc3)nc2cc1OC` is reported as 84.5%.
`COc1cc2ncnc(Nc3ccc(OCc4ccccc4)cc3)c2cc1OC` has a remaining activity of 107%.
`O=C(Nc1ccc(Cl)cc1)c1ccccc1NCc1ccncc1` has a remaining activity of 86.9%.
`COc1cc2ncnc(N3CCN(C(=O)Nc4ccc(Oc5ccccc5)cc4)CC3)c2cc1OC` gave a remaining activity of 110%.
`CN(C)CCCn1cc(C2=C(c3c[nH]c4ccccc34)C(=O)NC2=O)c2ccccc21` gave a remaining activity of 84.7%.
`COc1ccc(Cl)cc1NC(=O)Nc1cc(C)nc2ccccc12` gave a remaining activity of 91.2%.
With `O=c1cc(N2CCOCC2)oc2c1ccc1ccccc12` the remaining activity was 96.1%.
For `Cc1nc(Nc2ncc(C(=O)Nc3c(C)cccc3Cl)s2)cc(N2CCN(CCO)CC2)n1`, the remaining activity was 85.5%.
With `CCC(=O)Nc1ccc2ncnc(Nc3cccc(Br)c3)c2c1` the remaining activity was 103%.
The remaining activity of `Cn1cnc2cc3c(Nc4cccc(Br)c4)ncnc3cc21` is reported as 113%.
For `O=C1NC(=O)/C(=C/c2ccc3nccnc3c2)S1`, the remaining activity was 100%.
`CC(C)[C@H](CO)Nc1nc(Nc2cccc(Cl)c2)c2ncn(C(C)C)c2n1` gave a remaining activity of 67.5%.
`Nc1[nH]nc2nnc(-c3c(-c4ccccc4)nn4ccccc34)cc12` has a remaining activity of 97.1%.
`CC(C)c1nn(-c2c(Cl)cccc2Cl)c2nc(Cc3ccc(OCCO)cc3)[nH]c(=O)c12` has a remaining activity of 125%.
`CCN1/C(=C/C(C)=O)Sc2ccc(OC)cc21` has a remaining activity of 115%.
The remaining activity of `Cn1cc(/C=C2\C(=O)Nc3ccc(S(N)(=O)=O)cc32)c2ccccc21` is reported as 27.5%.
The remaining activity of `CCOc1cc2ncnc(Nc3cccc(Br)c3)c2cc1OCC` is reported as 98.8%.
`Cc1ccc(NC(=O)c2ccc(CN3CCN(C)CC3)cc2)cc1Nc1nccc(-c2cccnc2)n1` gave a remaining activity of 93.6%.
`CS(=O)(=O)CCNCc1ccc(-c2ccc3ncnc(Nc4ccc(OCc5cccc(F)c5)c(Cl)c4)c3c2)o1` has a remaining activity of 95.4%.

Block 4 — species: human; matrix: microsomes or S9; concentration: 2 µM; time: 0.5 h
For `Cn1cc(C(N)=O)cc1C(=O)Nc1ccccc1Oc1ccccc1`, the remaining compound was 14.8%.
The remaining compound of `Cc1cc(C)c(S(=O)(=O)N[C@H](CO)C(C)C)c(C)c1` is reported as under 1%.
`Clc1ccccc1/C=C/c1nnc(-c2ccccc2Cl)o1` has a remaining compound of 66.5%.
With `CN1O[C@H](COc2ccc(O/C(F)=C\c3ccccc3)cc2)C[C@@]1(Cn1cncn1)c1ccccc1` the remaining compound was 74.8%.
`CCOC(=O)c1c(N)sc2c1CCC(NC(=O)OC(C)(C)C)C2` (centres unmarked) has a remaining compound of 97.7%.
With `CN(C)CCCOc1ccc(CN2CCC(NC(=O)c3ccc(Br)o3)CC2)cc1` the remaining compound was 97.9%.
The remaining compound of `CN(/C=N/c1c(F)c(F)cc(F)c1F)/C=N/c1c(F)c(F)cc(F)c1F` is reported as 53.3%.
With `O=C1NCC(Cn2c3ccccc3c3ccccc32)O1` (centres unmarked) the remaining compound was 60.1%.
The remaining compound of `Cc1ccc(Cn2c(=O)c3ccc(C(=O)NC(C)C)cc3n3c(=O)n(C)nc23)cc1` is reported as 53.4%.

For quick reference, copied from above (block 2):
PIK3CA (Homo sapiens, UniProt P42336, E545K) — remaining binding: 91%.
It gave 98% for remaining binding (PAK5 (Homo sapiens, UniProt Q9P286)).
The remaining binding was 82% (CDK7 (Homo sapiens, UniProt P50613)).
It gave 100% for remaining binding (DAPK2 (Homo sapiens, UniProt Q9UIK4)).
The remaining binding was 100% (PIK3CA (Homo sapiens, UniProt P42336, E545A)).
The remaining binding was 100% (EPHA2 (Homo sapiens, UniProt P29317)).
The remaining binding was 96% (PIK3CA (Homo sapiens, UniProt P42336, H1047L)).
It gave 81% for remaining binding (LATS1 (Homo sapiens, UniProt O95835)).
